Experimental data gathered from unrelated publications.
A part holds a random share of what one study measured. Changes are numbered by the printed parent chain.

Series 1 — effect on: Ni-NTA bead binding; technique: phage display NGS; form: peptide; medium: phage-displayed 11-mer library; tested at: concentration not given; added: Ni-NTA beads; relative to: input library; quantity: enrichment fold change
TAPFYPPAYAI: 1.91
TAPFYPPAYDI: 1.04
TAPFYPPAYQI: 1.02

Series 2 — target: tungstate, free oxyanion; technique: microfluidic competitive inhibition; medium: in vitro, cell-free expressed; tested at: not given; direction: lower = stronger binding; quantity: oxyanion analog dissociation constant
Notes: derived from inhibition constants, unchanged parent 2230 nM
Starting sequence: PafA, mature enzyme, eGFP fusion (Elizabethkingia meningoseptica, UniProt Q9KJX5); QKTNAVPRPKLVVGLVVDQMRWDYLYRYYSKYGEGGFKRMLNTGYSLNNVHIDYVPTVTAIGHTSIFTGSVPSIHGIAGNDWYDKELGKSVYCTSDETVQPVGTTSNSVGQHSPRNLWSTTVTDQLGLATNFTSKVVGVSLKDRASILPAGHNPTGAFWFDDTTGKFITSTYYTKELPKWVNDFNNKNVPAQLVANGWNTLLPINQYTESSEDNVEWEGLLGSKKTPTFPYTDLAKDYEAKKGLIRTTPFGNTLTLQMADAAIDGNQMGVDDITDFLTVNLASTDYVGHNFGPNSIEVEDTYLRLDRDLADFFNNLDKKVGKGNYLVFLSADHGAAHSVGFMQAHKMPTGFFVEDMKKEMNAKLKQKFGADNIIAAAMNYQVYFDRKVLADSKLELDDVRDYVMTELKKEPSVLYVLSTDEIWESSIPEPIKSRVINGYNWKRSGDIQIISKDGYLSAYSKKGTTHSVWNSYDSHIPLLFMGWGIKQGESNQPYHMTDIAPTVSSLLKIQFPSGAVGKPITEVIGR
L47V: 2.26 µM
N379G: 2.12 µM
L148V: 2 µM
F250G: 1.14 µM
Y83V: 1.8 µM
G438V: 868 nM
N153G: 1.84 µM
N205V: 2.62 µM

Series 3 — target: CCND3, cyclin fold, Cln2 fusion (human); technique: yeast growth competition, sequencing; medium: yeast; notes: weak parent motif; relative to: not given; direction: higher = stronger binding; quantity: normalised enrichment score; starting sequence: viral docking peptide; TSVRRALFTGGSD
A6N: 0.184
T9H: 0.266
R4Y: 0.277
S2W: -0.255
F8I: 0.00077
A6D: -0.0195
R4A: 0.0437
G10S: 0.205

Mixed results
Cc1noc([C@H]2C[C@@H](c3ccc(C(F)(F)F)cc3)CN(C(=O)N3CCS(=O)(=O)C3)C2)n1 — remaining binding (CRK2 (Plasmodium falciparum, UniProt P61075); cell-free assay, competition with immobilised ligand; 1 µM): 80%
Cc1ccc(NC=C2C(=O)NC(=O)N(c3ccccc3)C2=O)cc1Cl — inhibition (AlphaScreen signal, AlphaScreen counter screen; His6 peptide without bromodomain; 50 µM, assay interference check): 14.2%
